Assay results collected from several papers.
Each line is one published result; not all experiments were run side by side. Several values in a cell are separate wells, animals, samples, runs or records. ± marks the error that the study gave.

| SMILES | target or system | test | test system | setting | how to read | measurement | result |
| --- | --- | --- | --- | --- | --- | --- | --- |
| CC(C)(C)C(=O)OCOP(=O)(OCOC(=O)C(C)(C)C)C1CCCN(O)C1=O (stereo not shown) | KM12 |  |  |  |  | CC50 | > 100 µM |
| CC(C)CC(O)(CC(C)C)c1cn(C(=O)N2CCCC2)nn1 | mouse T-cells | N-terminal labelling enrichment, measured: Scye1 N-terminal peptides |  | 1 nM, 6 h, protein median | baseline: DMSO | SILAC ratio | 0.81 |
| CC(C)[C@H](NC(=O)[C@H](CCCNC(=N)N)NC(=O)[C@@H]1CCCN1C(=O)[C@@H](NC(=O)[C@H](C)NC(=O)[C@H](Cc1ccc(O)cc1)NC(=O)[C@H](CCC(N)=O)NC(=O)[C@H](CCCCN)NC(=O)[C@H](CCCNC(=N)N)NC(=O)[C@@H]1CCCN1C(=O)[C@H](CCC(=O)O)NC(=O)[C@@H](NC(=O)[C@H](C)N)[C@@H](C)O)[C@@H](C)O)C(=O)N[C@@H](Cc1ccccc1)C(=O)N[C@@H](Cc1c[nH]c2ccccc12)C(=O)N[C@H](C(=O)N[C@@H](CC(=O)O)C(=O)N[C@@H](C)C(=O)N1CCC[C@H]1C(=O)NCC(=O)NCCOCCOCCOCCOCCOCCOCCOCCOCCOCCOCCOCCOCCC(=O)N[C@@H](CS)C(N)=O)[C@@H](C)O | PC-9 | phage binding |  |  | baseline: targeting over control phage | selectivity ratio | 2.5 ± 1.2 |
| O=C(O)c1ccc(-c2nc(-c3ccccc3Cl)c3sccn23)cc1 | HEL | flow cytometry, measured: surface CD71 |  | 0.01 mM | higher = more expression | mean fluorescence intensity | 43900 a.u. |
| CSCC[C@H](NC(=O)[C@@H](NC(=O)[C@H](CCC(N)=O)NC(=O)[C@H](CO)NC(=O)[C@@H](N)C(C)C)[C@@H](C)O)C(=O)N[C@@H](CCCNC(=N)N)C(=O)N[C@@H](CCC(N)=O)C(=O)N[C@H](C(=O)N[C@@H](C)C(=O)N[C@H](C(=O)N1CCC[C@H]1C(=O)N[C@@H](CC(C)C)C(=O)N[C@@H](CC(C)C)C(=O)N[C@@H](Cc1c[nH]c2ccccc12)C(=O)N[C@@H](Cc1ccccc1)C(=O)N[C@@H](Cc1c[nH]c2ccccc12)C(=O)N[C@H](C(=O)NCC(=O)N[C@@H](CO)C(=O)N[C@@H](CC(C)C)C(=O)NCCOCCOCCOCCOCCOCCOCCOCCOCCOCCOCCOCCOCCC(=O)N[C@@H](CS)C(N)=O)[C@@H](C)O)C(C)C)[C@@H](C)O | Calu-3 | phage binding |  |  | baseline: targeting over control phage | selectivity ratio | 1.2 ± 0.58 |
| NC(=S)N/N=C/c1ccc(OCc2cccc(F)c2)cc1 | IMR-32 |  |  | 200 µg/mL, 24 h | higher = more activity | catalase activity (OD450) | 0.183 a.u. |
| Cc1cc(Oc2nc(N3CC[C@@H](c4ccncc4)C3)ncc2F)[nH]n1 | SK-MEL-5 | cell proliferation | skin cancer |  |  | IC50 | 64.6 µM |
| COc1ccc2c(c1)c(CC(=O)[Se]CC(=O)Nc1cccc(C(F)(F)F)c1)c(C)n2C(=O)c1ccc(Cl)cc1 | NCI60 melanoma subpanel | cytotoxicity, inhibitor |  | five-dose |  | CC50 | 10.8 µM |
| COc1ccccc1-c1n[nH]c2nc(NC3CCN(C(=O)Cc4ccc(F)cc4F)CC3)ncc12 |  | bead binding, competition bead pull-down, measured: LINJ.36.2140 | Leishmania donovani axenic amastigote extract | 10 µM | baseline: vehicle | relative abundance | 0.99 |
| O=C1NC2(CC2)COc2ncc(F)cc2[C@H]2COCCN2c2ccn3ncc1c3n2 |  |  | Sprague-Dawley rat, female, liver | oral, 20 mg/kg/day, 4 weeks, end of treatment |  | organ-to-brain weight ratio | 584 ± 111% |
| Cc1cc(C(=O)Nc2nc3cccc(C)c3n2[C@H]2CCCCN(C(=O)/C=C/CN(C)C)C2)ccn1 | Trypanosoma brucei | cell growth, Alamar Blue | 2T1 overexpressing Tb927.10.10350 |  | baseline: parental 2T1 | EC50 fold shift | 1.16 fold and 0.8 fold |
| COc1ccccc1-c1n[nH]c2nc(N[C@H]3CC[C@H](NS(=O)(=O)CC(C)C)CC3)ncc12 |  | bead binding, competition bead pull-down, measured: LINJ.34.0070 | Leishmania donovani extract | 10 µM | baseline: vehicle | relative abundance | 0.96 |
| O=C(C[Se]C(=O)c1cc2ccccc2s1)Nc1cccc(C(F)(F)F)c1 | NCI60 leukaemia subpanel | NCI60 five-dose screen |  |  |  | CC50 | 10.4 µM |

Excerpt of the above:
| SMILES | target or system | test | test system | setting | how to read | measurement | result |
| --- | --- | --- | --- | --- | --- | --- | --- |
| CC(C)CC(O)(CC(C)C)c1cn(C(=O)N2CCCC2)nn1 | mouse T-cells | N-terminal labelling enrichment, measured: Scye1 N-terminal peptides |  | 1 nM, 6 h, protein median | baseline: DMSO | SILAC ratio | 0.81 |
| CC(C)[C@H](NC(=O)[C@H](CCCNC(=N)N)NC(=O)[C@@H]1CCCN1C(=O)[C@@H](NC(=O)[C@H](C)NC(=O)[C@H](Cc1ccc(O)cc1)NC(=O)[C@H](CCC(N)=O)NC(=O)[C@H](CCCCN)NC(=O)[C@H](CCCNC(=N)N)NC(=O)[C@@H]1CCCN1C(=O)[C@H](CCC(=O)O)NC(=O)[C@@H](NC(=O)[C@H](C)N)[C@@H](C)O)[C@@H](C)O)C(=O)N[C@@H](Cc1ccccc1)C(=O)N[C@@H](Cc1c[nH]c2ccccc12)C(=O)N[C@H](C(=O)N[C@@H](CC(=O)O)C(=O)N[C@@H](C)C(=O)N1CCC[C@H]1C(=O)NCC(=O)NCCOCCOCCOCCOCCOCCOCCOCCOCCOCCOCCOCCOCCC(=O)N[C@@H](CS)C(N)=O)[C@@H](C)O | PC-9 | phage binding |  |  | baseline: targeting over control phage | selectivity ratio | 2.5 ± 1.2 |
